Measurements from different studies.
Lines come from different studies, so protocols differ. ± gives the spread as reported.
NPY4R: Neuropeptide Y receptor type 4 (NPY4R, Homo sapiens, UniProt P50391)
Chain of UniProt P50391 (whole entry, looked up): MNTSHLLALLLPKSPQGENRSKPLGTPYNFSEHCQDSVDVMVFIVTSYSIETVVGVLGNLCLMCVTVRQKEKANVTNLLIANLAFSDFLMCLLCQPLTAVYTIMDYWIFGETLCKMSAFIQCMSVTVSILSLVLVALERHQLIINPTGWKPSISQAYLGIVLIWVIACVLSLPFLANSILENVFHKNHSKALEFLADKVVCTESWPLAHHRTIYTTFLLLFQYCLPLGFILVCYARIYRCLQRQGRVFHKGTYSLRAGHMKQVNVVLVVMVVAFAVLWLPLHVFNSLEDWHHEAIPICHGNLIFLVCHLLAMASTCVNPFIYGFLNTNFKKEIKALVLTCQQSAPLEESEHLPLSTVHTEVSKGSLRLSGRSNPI
Chain of UniProt P11229 (whole entry, looked up): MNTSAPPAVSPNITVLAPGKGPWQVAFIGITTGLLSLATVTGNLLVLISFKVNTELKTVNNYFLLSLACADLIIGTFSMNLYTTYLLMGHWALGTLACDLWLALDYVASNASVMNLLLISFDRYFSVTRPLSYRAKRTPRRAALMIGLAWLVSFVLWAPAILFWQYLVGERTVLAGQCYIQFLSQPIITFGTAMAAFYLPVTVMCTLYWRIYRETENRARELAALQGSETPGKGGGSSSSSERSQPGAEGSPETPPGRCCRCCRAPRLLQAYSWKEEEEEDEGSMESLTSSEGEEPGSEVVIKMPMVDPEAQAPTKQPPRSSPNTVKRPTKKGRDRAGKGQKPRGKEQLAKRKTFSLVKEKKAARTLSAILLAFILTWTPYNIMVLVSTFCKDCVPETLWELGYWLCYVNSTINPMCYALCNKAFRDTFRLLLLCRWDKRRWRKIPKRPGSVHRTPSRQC
Chain of UniProt P27008 (whole entry, looked up): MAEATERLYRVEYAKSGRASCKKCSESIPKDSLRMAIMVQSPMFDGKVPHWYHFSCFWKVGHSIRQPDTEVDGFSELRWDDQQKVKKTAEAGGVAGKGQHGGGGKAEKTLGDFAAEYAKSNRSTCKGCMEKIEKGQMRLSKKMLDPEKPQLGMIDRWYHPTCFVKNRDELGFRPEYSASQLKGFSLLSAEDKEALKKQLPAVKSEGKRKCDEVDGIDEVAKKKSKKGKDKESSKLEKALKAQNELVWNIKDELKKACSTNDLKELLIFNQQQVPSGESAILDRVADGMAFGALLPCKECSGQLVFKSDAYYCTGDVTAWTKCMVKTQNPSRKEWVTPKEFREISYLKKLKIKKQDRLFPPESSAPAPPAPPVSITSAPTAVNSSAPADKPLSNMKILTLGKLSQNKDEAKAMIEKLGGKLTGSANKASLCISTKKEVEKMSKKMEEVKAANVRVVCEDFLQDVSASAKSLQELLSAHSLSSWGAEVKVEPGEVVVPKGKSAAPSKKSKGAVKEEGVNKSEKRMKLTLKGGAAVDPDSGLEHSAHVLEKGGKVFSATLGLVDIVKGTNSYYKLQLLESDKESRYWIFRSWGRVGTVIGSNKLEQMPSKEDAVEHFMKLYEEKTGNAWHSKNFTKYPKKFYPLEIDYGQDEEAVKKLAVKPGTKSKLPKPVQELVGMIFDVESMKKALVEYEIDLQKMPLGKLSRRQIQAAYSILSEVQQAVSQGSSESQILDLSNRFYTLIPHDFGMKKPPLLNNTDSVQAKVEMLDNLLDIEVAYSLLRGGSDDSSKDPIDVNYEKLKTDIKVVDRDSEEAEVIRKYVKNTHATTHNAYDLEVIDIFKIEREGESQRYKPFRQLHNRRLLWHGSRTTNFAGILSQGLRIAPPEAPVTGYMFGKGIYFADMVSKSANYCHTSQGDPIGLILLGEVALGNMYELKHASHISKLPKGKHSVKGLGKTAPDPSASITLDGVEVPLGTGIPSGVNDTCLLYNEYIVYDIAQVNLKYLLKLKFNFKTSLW
Chain of UniProt O60285 (whole entry, looked up): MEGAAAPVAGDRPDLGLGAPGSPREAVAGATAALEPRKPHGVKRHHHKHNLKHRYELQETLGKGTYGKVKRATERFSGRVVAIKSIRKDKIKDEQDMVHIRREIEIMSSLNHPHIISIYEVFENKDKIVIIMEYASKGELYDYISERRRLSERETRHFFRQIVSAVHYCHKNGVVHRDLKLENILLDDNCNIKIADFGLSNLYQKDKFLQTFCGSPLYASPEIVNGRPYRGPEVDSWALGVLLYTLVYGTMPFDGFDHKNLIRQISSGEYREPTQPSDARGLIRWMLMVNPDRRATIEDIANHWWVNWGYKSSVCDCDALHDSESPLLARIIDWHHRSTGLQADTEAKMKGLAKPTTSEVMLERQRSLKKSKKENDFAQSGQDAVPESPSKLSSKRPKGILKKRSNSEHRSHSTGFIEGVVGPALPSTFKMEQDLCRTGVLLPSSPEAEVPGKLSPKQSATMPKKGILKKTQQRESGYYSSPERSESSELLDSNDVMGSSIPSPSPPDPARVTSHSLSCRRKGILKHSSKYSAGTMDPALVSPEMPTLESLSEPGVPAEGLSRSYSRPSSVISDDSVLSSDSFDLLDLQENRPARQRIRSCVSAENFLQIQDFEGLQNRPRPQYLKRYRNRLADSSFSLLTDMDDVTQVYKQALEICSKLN
Chain of UniProt P31652 (whole entry, looked up): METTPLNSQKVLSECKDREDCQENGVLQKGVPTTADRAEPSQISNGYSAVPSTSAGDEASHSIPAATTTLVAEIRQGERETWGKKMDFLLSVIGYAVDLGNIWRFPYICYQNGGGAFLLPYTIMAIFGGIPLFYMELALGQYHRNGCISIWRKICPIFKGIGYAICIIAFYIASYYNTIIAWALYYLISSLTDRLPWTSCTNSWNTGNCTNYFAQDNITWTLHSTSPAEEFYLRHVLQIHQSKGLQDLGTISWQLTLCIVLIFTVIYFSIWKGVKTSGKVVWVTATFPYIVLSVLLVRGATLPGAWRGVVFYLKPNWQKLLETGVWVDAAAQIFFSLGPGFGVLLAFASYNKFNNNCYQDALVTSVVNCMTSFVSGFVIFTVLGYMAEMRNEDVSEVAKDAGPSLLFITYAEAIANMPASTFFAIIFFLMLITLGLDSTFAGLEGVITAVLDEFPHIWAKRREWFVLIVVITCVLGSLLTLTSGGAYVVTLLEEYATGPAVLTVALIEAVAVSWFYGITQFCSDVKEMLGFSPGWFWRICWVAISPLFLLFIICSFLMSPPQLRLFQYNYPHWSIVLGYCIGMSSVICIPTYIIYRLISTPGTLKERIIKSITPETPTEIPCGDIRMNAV
Chain of UniProt P30988 (whole entry, looked up): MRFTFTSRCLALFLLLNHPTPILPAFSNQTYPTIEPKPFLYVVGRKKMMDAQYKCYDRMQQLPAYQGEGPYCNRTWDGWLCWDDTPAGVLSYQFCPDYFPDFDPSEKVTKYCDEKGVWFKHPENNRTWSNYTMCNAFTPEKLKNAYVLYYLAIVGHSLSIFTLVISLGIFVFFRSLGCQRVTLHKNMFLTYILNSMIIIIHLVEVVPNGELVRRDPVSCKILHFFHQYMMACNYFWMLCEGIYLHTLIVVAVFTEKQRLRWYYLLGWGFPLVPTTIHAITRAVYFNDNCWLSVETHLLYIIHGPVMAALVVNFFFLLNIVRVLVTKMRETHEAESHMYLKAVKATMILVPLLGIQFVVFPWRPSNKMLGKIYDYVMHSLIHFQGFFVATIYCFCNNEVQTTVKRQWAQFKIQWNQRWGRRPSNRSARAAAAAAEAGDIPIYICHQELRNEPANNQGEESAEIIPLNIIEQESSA

`O=S(=O)(c1ccc(-c2ccc3ncnc(Nc4ccc(OCc5cccc(F)c5)c(Cl)c4)c3c2)cc1)N1CCSCC1` has an EC50 of over 15000 nM (Leishmania major; intracellular amastigote growth, luciferase; RAW264.7 macrophages).
`CN(CCOCCOCCOCCOCCOCCOCCNc1cccc2c1C(=O)N(C1CCC(=O)NC1=O)C2=O)Cc1ccc(-c2[nH]c3cc(F)cc4c3c2CCNC4=O)cc1` (stereo not shown) gave a DC50 of 81.8 ± 17.2 nM (Parp1 (Rattus norvegicus, UniProt P27008); degrader).
The Kb of `CC(C)CN(NC(=O)[C@H](CCCNC(=N)N)NC(=O)[C@H](Cc1ccc(O)cc1)NC(=O)CCCCCCC(=O)N[C@@H](Cc1ccc(O)cc1)C(=O)N[C@@H](CCCNC(=N)N)C(=O)NN(CC(C)C)C(=O)N[C@@H](CCCNC(=N)N)C(=O)N[C@@H](Cc1ccc(O)cc1)C(N)=O)C(=O)N[C@@H](CCCNC(=N)N)C(=O)N[C@@H](Cc1ccc(O)cc1)C(N)=O` is reported as 127 nM (NPY4R; calcium signal, antagonist).
The IC50 of `Cc1nn(-c2cccc(N)c2)c(=O)c2cnc(Nc3ccc(N4CCNCC4)cc3)nc12` is reported as 3250 nM (NUAK1 (Homo sapiens, UniProt O60285); enzyme activity, inhibitor).
`CC(C)C[C@H](NC(=O)[C@H](CCCNC(=N)N)NC(=O)[C@H](Cc1ccc(O)cc1)NC(=O)CCCCCCC(=O)N[C@@H](Cc1ccc(O)cc1)C(=O)N[C@@H](CCCNC(=N)N)C(=O)N[C@@H](CC(C)C)C(=O)NN(CCCNC(=N)N)C(=O)N[C@@H](Cc1ccc(O)cc1)C(N)=O)C(=O)NN(CCCNC(=N)N)C(=O)N[C@@H](Cc1ccc(O)cc1)C(N)=O` gave a Kb of 50.6 ± 0.2 nM (NPY4R; antagonist; cell-based).
For `Fc1cccc(COc2ccc(Nc3ncnc4ccc(-c5cccc(CN6CCCCC6)c5)cc34)cc2Cl)c1`, the EC50 was 3500 nM (Leishmania major; intracellular amastigote growth, luciferase; RAW264.7 macrophages).
`COc1ccc(C(CNc2cccc(F)c2C#N)N(C)C)cc1` (stereo not shown) has a Ki of 56 nM (Slc6a4 (Rattus norvegicus, UniProt P31652); ligand displacement, radioligand).
`Cn1ccc2c(N3CCN(CCCCOc4ccc5c(c4)NC(=O)CC5)CC3)cccc21` gave a Ki of 940 nM (CHRM1 (Homo sapiens, UniProt P11229); ligand displacement, radioligand).
With `Nc1nnc(-c2ccccc2O)cc1N1CC2CCC(C1)N2c1ccnc(C#CCCN2CCCCCC2)c1` the DC50 was 0.84 nM (SMARCA4 (Homo sapiens, UniProt P51532); degrader, immunofluorescence; SW1573).
`CC[C@H](C)[C@@H](C(=O)N[C@@H](CC(C)C)C(=O)N[C@@H](CO)C(=O)N[C@@H](CO)C(=O)N[C@H](C(=O)N[C@@H](CCC(=O)O)C(=O)N[C@H](C(=O)NCC(=O)N[C@@H](CO)C(=O)N[C@@H](CC(N)=O)C(=O)N[C@H](C(=O)N1C[C@H](O)C[C@H]1C(N)=O)[C@@H](C)O)C(C)C)[C@@H](C)O)N(C)C(=O)[C@H](C)NC(=O)CN(C)C(=O)[C@H](Cc1ccccc1)NC(=O)[C@H](CO)NC(=O)[C@H](CO)NC(=O)[C@H](CCCNC(=N)N)NC(=O)[C@H](CCC(N)=O)NC(=O)[C@H](CC(C)C)NC(=O)[C@H](Cc1ccccc1)NC(=O)[C@H](Cc1c[nH]cn1)NC(=O)[C@H](C)NC(=O)[C@H](CC(C)C)NC(=O)[C@H](CCCNC(=N)N)NC(=O)[C@H](CCC(=O)O)NC(=O)[C@@H](NC(=O)[C@H](C)NC(=O)[C@@H]1CCNC(=O)C[C@H](NC(=O)[C@H](CCCNC(=N)N)NC(=O)CC[C@H](NC(=O)CCCCCCCCCCCCCCCCCCC(=O)O)C(=O)O)C(=O)NCC(=O)N[C@@H]([C@@H](C)O)C(=O)N[C@@H](C)C(=O)N[C@@H]([C@@H](C)O)C(=O)N1)[C@@H](C)O` gave an EC50 of 30.9 nM (Calcitonin receptor (CALCR, Homo sapiens, UniProt P30988); cAMP, agonist).

A few entries again:
`Cn1ccc2c(N3CCN(CCCCOc4ccc5c(c4)NC(=O)CC5)CC3)cccc21` gave a Ki of 940 nM (CHRM1 (Homo sapiens, UniProt P11229); ligand displacement, radioligand).
